Measurements pooled from the literature.
Compare with care: the assays were run in different laboratories. ≈ marks a conversion by molar mass, not a printed value.

The maximum inhibition of CCCc1ccc(OCC(=O)N(Cc2nc(-c3cccnc3)no2)C(C)C)cc1 is reported as 9.92% (human coronavirus OC43; virus-induced cell killing; MRC-5; screen).
For COC(=O)c1ccc2c(ccc3oc([N+](=O)[O-])cc32)c1, the MIC90 was > 32 µg/mL (Mycobacteroides abscessus; REMA; ATCC 19977).
For CO[C@H]1/C=C/O[C@@]2(C)Oc3c(C)c(O)c4c(O)c(c(/C=N/N5CCN(C)CC5)c(O)c4c3C2=O)NC(=O)/C(C)=C\C=C\[C@H](C)[C@H](O)[C@@H](C)[C@@H](O)[C@@H](C)[C@H](OC(C)=O)[C@@H]1C, the MIC was 150 µM (≈ 123 µg/mL) (Mycobacteroides abscessus; ATCC 19977; 72 h).
CC[C@H]1OC(=O)[C@H](C)[C@@H](O[C@H]2C[C@@](C)(OC)[C@@H](O)[C@H](C)O2)[C@H](C)[C@@H](O[C@@H]2O[C@H](C)C[C@H](N(C)C)[C@H]2O)[C@](C)(OC)C[C@@H](C)C(=O)[C@H](C)[C@@H](O)[C@]1(C)O has an MIC of 2.1 µM (≈ 1.57 µg/mL) (Mycobacteroides abscessus; RFB-R1 rifamycin-resistant RNAP mutant; 90% growth inhibition).
Cc1ccc(-c2nc3ccc(C)cn3c2CC(=O)N(C)C)cc1 has an MIC of > 50 µM (Mycobacteroides abscessus; ATCC 19977; 72 h).
CS(=O)(=O)Nc1ncn(-c2cc(F)c(COc3ccc(OS(=O)(=O)F)cc3)c(F)c2)n1 has an MIC of 6.25 µM (≈ 2.99 µg/mL) (Mycobacteroides abscessus).
The MIC of CCCCCCC#Cc1cncc(-c2nnc(SCc3cc([N+](=O)[O-])cc([N+](=O)[O-])c3)n2C)c1 is reported as ≥ 200 µM (Mycobacteroides abscessus; no activity below value).
With CO[C@H]1/C=C/O[C@@]2(C)Oc3c(C)c(O)c4c(c3C2=O)C2=NC3(CCN(CC(C)C)CC3)NC2=C(NC(=O)/C(C)=C\C=C\[C@H](C)[C@H](O)[C@@H](C)[C@@H](O)[C@@H](C)[C@H](OC(C)=O)[C@@H]1C)C4=O the MIC was > 100 µM (Mycobacteroides abscessus; RFB-R1 rifamycin-resistant RNAP mutant; 90% growth inhibition).
For CN1CC[C@H](c2c(O)cc(O)c3c(=O)cc(-c4ccccc4Cl)oc23)[C@H](O)C1, the maximum inhibition was 0% (human coronavirus OC43; virus-induced cell killing; MRC-5; maximum over 10 doses).
With CCOC(=O)COc1ccc2ccc3oc([N+](=O)[O-])cc3c2c1 the MIC90 was 4 µg/mL (≈ 12.7 µM) (Mycobacteroides abscessus; REMA; ATCC 19977).

Excerpt of the above:
Cc1ccc(-c2nc3ccc(C)cn3c2CC(=O)N(C)C)cc1 has an MIC of > 50 µM (Mycobacteroides abscessus; ATCC 19977; 72 h).
